Results of several laboratories.
Lines come from different studies, so protocols differ. Values joined by “and” are separate records of one study, mostly repeats; a detail may differ. ± marks the error that the study gave.

SMILES | test | test system | setting | how to read | quantity | value
C/C(=C\CCP(=O)(OCOC(=O)CC1CCOCC1)Oc1ccc(C(C)C)cc1)CO (stereo not drawn) | – | 50% CD1 mouse plasma | 100 µM, 2 h, pH 7.5, 37 °C | – | remaining compound | 0%
CC[C@H](C)[C@H](N)C(=O)N[C@H](CC(C)C)C(=O)N[C@@H](CCCNC(=N)N)C(=O)N[C@@H](Cc1c[nH]c2ccccc12)C(=O)N[C@@H](CO)C(=O)N[C@@H](CCCNC(=N)N)C(=O)N[C@@H](CCCCN)C(=O)N[C@@H](CC(C)C)C(=O)N1CCC[C@H]1C(=O)N[C@@H](CS)C(=O)N[C@H](C(=O)N[C@@H](CO)C(N)=O)C(C)C | 12G5 competition, SUP-T1 cells | human plasma | 20 µM, 2 h, 37 °C | – | remaining activity | 63 ± 12%
CC[C@@H](C)[C@@H](NC(=O)[C@@H](Cc1ccc(O)cc1)NC(=O)[C@H]1CCCN1C(=O)[C@@H](CCCNC(=N)N)NC(=O)[C@H](N)Cc1c[nH]cn1)C(=O)N[C@H](C)C(=O)N[C@H](Cc1c[nH]cn1)C(=O)N[C@H](CCCNC(=N)N)C(=O)N[C@H](CCCCNC(=O)c1cccc(S(=O)(=O)F)c1)C(=O)N[C@H](Cc1ccc(O)cc1)C(=O)N[C@H](CO)C(=O)N[C@H](Cc1ccccc1)C(N)=O | – | 10% human serum | 2 h | – | remaining compound | 106% and 105%
CC[C@@H](C)[C@@H](NC(C)=O)C(=O)N[C@@H](CC(C)C)C(=O)N[C@@H](CCCNC(=N)N)C(=O)N[C@@H](Cc1c[nH]c2ccccc12)C(=O)N[C@@H](CO)C(=O)N[C@@H](CCCNC(=N)N)C(=O)N[C@@H](CCCCN)C(=O)N[C@@H](CC(C)C)C(=O)N1CCC[C@H]1C(=O)N[C@@H](CS)C(=O)N[C@H](C(=O)N[C@@H](CO)C(N)=O)C(C)C | 12G5 competition, SUP-T1 cells | human plasma | 20 µM, 8 h, 37 °C | – | remaining activity | 71 ± 17%
O=C/C=C/c1ccccc1 | – | FeSSGF | 2 h, pH 4.52, 37 °C | – | remaining concentration | 300 ± 30 µg/mL
CC(C)C[C@@H]1NC(=O)[C@H](CC(N)=O)NC(=O)[C@H](CCCNC(=N)N)NC(=O)[C@H]([C@@H](C)O)NC(=O)[C@@H]2CSSC[C@@H]3NC(=O)[C@H]([C@@H](C)O)NC(=O)CNC(=O)CNC(=O)[C@H](C(C)C)NC(=O)[C@@H]4CSSC[C@H](NC(=O)[C@H]([C@@H](C)O)NC(=O)[C@H](CSSC[C@H](NC(=O)[C@H](C(C)C)NC(=O)[C@@H]5CCCN5C(=O)[C@H](CC(C)C)NC1=O)C(=O)NCC(=O)N[C@@H](CCC(=O)O)C(=O)N[C@@H]([C@@H](C)O)C(=O)N4)NC(=O)CNC(=O)[C@@H]1CCCN1C(=O)[C@H]([C@@H](C)O)NC(=O)[C@H](CC(N)=O)NC3=O)C(=O)N[C@@H](CO)C(=O)N[C@@H](Cc1c[nH]c3ccccc13)C(=O)N1CCC[C@H]1C(=O)N[C@@H](C(C)C)C(=O)N2 | HPLC | water | 180 µM, 14 days, 37 °C, deamidation stability | – | remaining peptide | 98.3 ± 1.3%
CC[C@@H](C)[C@@H](NC(=O)[C@@H](Cc1ccc(O)cc1)NC(=O)[C@H]1CCCN1C(=O)[C@@H](CCCNC(=N)N)NC(=O)[C@H](N)Cc1c[nH]cn1)C(=O)N[C@H](C)C(=O)N[C@H](Cc1c[nH]cn1)C(=O)N[C@H](CCCNC(=N)N)C(=O)N[C@@H](C(=O)N[C@H](Cc1ccc(O)cc1)C(=O)N[C@H](CO)C(=O)N[C@H](Cc1ccccc1)C(N)=O)C(C)C | – | 10% human serum | 0 h | – | remaining compound | 99.8% and 100%
CC(C)C[C@@H]1NC(=O)[C@H](CC(N)=O)NC(=O)[C@H](CCCNC(=N)N)NC(=O)[C@H]([C@@H](C)O)NC(=O)[C@@H]2CSSC[C@@H]3NC(=O)[C@H]([C@@H](C)O)NC(=O)CNC(=O)CNC(=O)[C@H](C(C)C)NC(=O)[C@@H]4CSSC[C@H](NC(=O)[C@H](CCCCN)NC(=O)[C@H](CSSC[C@H](NC(=O)[C@H](C(C)C)NC(=O)[C@@H]5CCCN5C(=O)[C@H](CC(C)C)NC1=O)C(=O)NCC(=O)N[C@@H](CCC(=O)O)C(=O)N[C@@H]([C@@H](C)O)C(=O)N4)NC(=O)CNC(=O)[C@@H]1CCCN1C(=O)[C@H]([C@@H](C)O)NC(=O)[C@H](CC(N)=O)NC3=O)C(=O)N[C@@H](CO)C(=O)N[C@@H](Cc1c[nH]c3ccccc13)C(=O)N1CCC[C@H]1C(=O)N[C@@H](C(C)C)C(=O)N2 | HPLC | ammonium bicarbonate | 180 µM, 7 days, pH 9.0, 25 °C, deamidation stability | – | remaining peptide | 99.3 ± 0.6%
CSCC[C@H](NC(=O)[C@H](N)Cc1ccccc1)C(=O)N[C@@H](CCCNC(=N)N)C(=O)N[C@@H](Cc1c[nH]c2ccccc12)C(=O)N[C@@H](CO)C(=O)N[C@@H](CCCNC(=N)N)C(=O)N[C@@H](CCCCN)C(=O)N[C@@H](CCSC)C(=O)N1CCC[C@H]1C(=O)N[C@@H](CS)C(=O)N[C@H](C(=O)N[C@@H](CO)C(N)=O)C(C)C | 12G5 competition, SUP-T1 cells | human plasma | 20 µM, 8 h, 37 °C | – | remaining activity | 46 ± 1%
CC(C)C[C@@H]1NC(=O)CNC(=O)[C@H](CCCCN)NC(=O)[C@H](CCCNC(=N)N)NC(=O)[C@H]([C@@H](C)O)NC(=O)[C@@H]2CSSC[C@@H]3NC(=O)[C@H]([C@@H](C)O)NC(=O)CNC(=O)CNC(=O)[C@H](C(C)C)NC(=O)[C@@H]4CSSC[C@H](NC(=O)[C@H](CCCCN)NC(=O)[C@H](CSSC[C@H](NC(=O)[C@H](C(C)C)NC(=O)[C@@H]5CCCN5C1=O)C(=O)NCC(=O)N[C@@H](CCC(=O)O)C(=O)N[C@@H]([C@@H](C)O)C(=O)N4)NC(=O)CNC(=O)[C@@H]1CCCN1C(=O)[C@H]([C@@H](C)O)NC(=O)[C@H](CC(N)=O)NC3=O)C(=O)N[C@@H](CO)C(=O)N[C@@H](Cc1c[nH]c3ccccc13)C(=O)N1CCC[C@H]1C(=O)N[C@@H](C(C)C)C(=O)N2 | HPLC | ammonium bicarbonate | 180 µM, 7 days, pH 9.0, 25 °C, deamidation stability | – | remaining peptide | 100%
CSCC[C@H](NC(=O)[C@H](CCCNC(=N)N)NC(=O)[C@H](CCCNC(=N)N)NC(=O)[C@H](CCCCN)NC(=O)[C@H](C)NC(=O)[C@H](CCCNC(=N)N)NC(=O)CNC(=O)[C@@H](NC(=O)CCNC(=O)c1ccc2c(c1)C(=O)OC21c2ccc(O)cc2Oc2cc(O)ccc21)[C@@H](C)O)C(=O)N[C@@H](CSCB(O)O)C(=O)N[C@@H](Cc1ccc(O)cc1)C(=O)N[C@@H](CSCB(O)O)C(=O)N[C@@H](CCCNC(=N)N)C(=O)N[C@@H](CCCNC(=N)N)C(N)=O | HPLC peak area | 50% human serum | 100 µM, 12 h, pH 7.4, 37 °C | reference: 0 h | remaining peptide | 50.6% and 47.4% and 50%
CC(C)C[C@@H]1NC(=O)CNC(=O)[C@H](CC(N)=O)NC(=O)[C@H](CCCNC(=N)N)NC(=O)[C@H]([C@@H](C)O)NC(=O)[C@@H]2CSSC[C@@H]3NC(=O)[C@H]([C@@H](C)O)NC(=O)CNC(=O)CNC(=O)[C@H](C(C)C)NC(=O)[C@@H]4CSSC[C@H](NC(=O)[C@H]([C@@H](C)O)NC(=O)[C@H](CSSC[C@H](NC(=O)[C@H](CCCCN)NC(=O)[C@@H]5CCCN5C1=O)C(=O)NCC(=O)N[C@@H](CCC(=O)O)C(=O)N[C@@H]([C@@H](C)O)C(=O)N4)NC(=O)CNC(=O)[C@@H]1CCCN1C(=O)[C@H]([C@@H](C)O)NC(=O)[C@H](CC(N)=O)NC3=O)C(=O)N[C@@H](CO)C(=O)N[C@@H](Cc1c[nH]c3ccccc13)C(=O)N1CCC[C@H]1C(=O)N[C@@H](C(C)C)C(=O)N2 | HPLC | water | 180 µM, 14 days, 37 °C, deamidation stability | – | remaining peptide | 93.7 ± 5.2%
CCCCN1CCC(COC(=O)c2ccc(N)c(O[11CH3])c2)CC1 | – | rhesus monkey plasma | 30 min | – | remaining parent compound | 80%
CC(C)C[C@@H]1NC(=O)[C@H](CCCCN)NC(=O)[C@H](CC(N)=O)NC(=O)[C@H](CCCNC(=N)N)NC(=O)[C@H]([C@@H](C)O)NC(=O)[C@@H]2CSSC[C@@H]3NC(=O)[C@H]([C@@H](C)O)NC(=O)CNC(=O)CNC(=O)[C@H](C(C)C)NC(=O)[C@@H]4CSSC[C@H](NC(=O)[C@H]([C@@H](C)O)NC(=O)[C@H](CSSC[C@H](NC(=O)[C@H](C(C)C)NC(=O)[C@@H]5CCCN5C1=O)C(=O)NCC(=O)N[C@@H](CCC(=O)O)C(=O)N[C@@H]([C@@H](C)O)C(=O)N4)NC(=O)CNC(=O)[C@@H]1CCCN1C(=O)[C@H]([C@@H](C)O)NC(=O)[C@H](CC(N)=O)NC3=O)C(=O)N[C@@H](CO)C(=O)N[C@@H](Cc1c[nH]c3ccccc13)C(=O)N1CCC[C@H]1C(=O)N[C@@H](C(C)C)C(=O)N2 | HPLC | ammonium bicarbonate 0.1 M | 180 µM, 7 days, pH 9.0, 37 °C, deamidation stability | – | remaining peptide | 96.1 ± 0.3%
CC[C@H](C)[C@H](NC(=O)[C@H](Cc1ccccc1)NC(=O)[C@H](CCC(=O)O)NC(=O)[C@H](CCCCN)NC(=O)[C@H](C)NC(=O)[C@H](C)NC(=O)[C@H](CCC(N)=O)NC(=O)CNC(=O)[C@H](CCC(=O)O)NC(=O)[C@H](CC(C)C)NC(=O)[C@H](Cc1ccc(O)cc1)NC(=O)[C@H](CO)NC(=O)[C@H](CO)NC(=O)[C@@H](NC(=O)[C@H](CC(=O)O)NC(=O)[C@H](CO)NC(=O)[C@@H](NC(=O)[C@H](Cc1ccccc1)NC(=O)[C@@H](NC(=O)CNC(=O)[C@H](CCC(=O)O)NC(=O)[C@H](C)NC(=O)N(N)Cc1c[nH]cn1)[C@@H](C)O)[C@@H](C)O)C(C)C)C(=O)N[C@@H](C)C(=O)N[C@@H](Cc1c[nH]c2ccccc12)C(=O)N[C@@H](CC(C)C)C(=O)N[C@H](C(=O)N[C@@H](CCCNC(=N)N)C(=O)NCC(=O)N[C@@H](CCCNC(=N)N)C(=O)NCC(=O)O)C(C)C | HPLC-UV | Tris-HCl buffer | 0.1 mmol/l, 24 h, pH 7.4, 37 °C | – | remaining peptide | > 96%

Excerpt of the above:
SMILES | test | test system | setting | how to read | quantity | value
CC[C@@H](C)[C@@H](NC(C)=O)C(=O)N[C@@H](CC(C)C)C(=O)N[C@@H](CCCNC(=N)N)C(=O)N[C@@H](Cc1c[nH]c2ccccc12)C(=O)N[C@@H](CO)C(=O)N[C@@H](CCCNC(=N)N)C(=O)N[C@@H](CCCCN)C(=O)N[C@@H](CC(C)C)C(=O)N1CCC[C@H]1C(=O)N[C@@H](CS)C(=O)N[C@H](C(=O)N[C@@H](CO)C(N)=O)C(C)C | 12G5 competition, SUP-T1 cells | human plasma | 20 µM, 8 h, 37 °C | – | remaining activity | 71 ± 17%
